Assay results pooled from the literature.
Lines come from different studies, so protocols differ. ± marks the error that the study gave.

| Compound | cell line | test | conditions | scale | quantity | result |
| --- | --- | --- | --- | --- | --- | --- |
| CC(C)CC(O)(CC(C)C)c1cn(C(=O)N2CCCC2)nn1 | mouse T-cells | protein abundance, unenriched SILAC proteomics, measured: S100A6 | 1 nM, 6 h, protein median | relative to: DMSO | SILAC ratio | 1.03 ± 0.15 |
| CC1=CCC23OC2(C)CCC2C(C[N+](C)(C)C)C(=O)OC2C13.[I-] (stereo not drawn) | SW-620 | cell growth or viability, SRB | 8.3 µM |  | inhibition | 73.4% |
| O=C1/C(=C/c2ccc3c(c2)OCCO3)SC(=S)N1[C@@H]1O[C@H](CO)[C@@H](O)[C@H](O)[C@H]1O | HepG2 | measured: Bcl-2 | IC50, 48 h | relative to: untreated | mRNA fold change | 0.13 fold |
| CC(=O)Oc1ccc(/C=C/C(=O)Nc2nc(=O)n([C@@H]3O[C@H](C)[C@@H](OC(C)=O)[C@H]3OC(C)=O)cc2F)c(OC(C)=O)c1 | ASPC1 | cell viability, MTT |  | relative to: NHDF fibroblasts over ASPC1 | selectivity index | 1.43 |
| C[C@H]1C(OCCCCCCCCCCC[P+](c2ccccc2)(c2ccccc2)c2ccccc2)O[C@@H]2O[C@@]3(C)CCC4[C@H](C)CCC1[C@]42OO3 (stereo partly drawn) | T24 | MTT | 72 h | relative to: HUVEC IC50 over T24 IC50 | selectivity index | 0.97 |
| CN1/C(=C/C=C2\CCCC(/C=C/C3=[N+](C)c4ccccc4C3(C)C)=C2SCCC(=O)N[C@@H](Cc2ccccc2)C(=O)N[C@@H](Cc2ccccc2)C(=O)N[C@@H](CCCCNC(=O)CCC(=O)O)C(=O)N[C@@H](CCCCNC(=O)CCCC[C@@H]2SC[C@@H]3NC(=O)N[C@@H]32)C(=O)O)C(C)(C)c2ccccc21 | 4T1 | CCK-8 | 20 µM, 4 h then 24 h, dark | relative to: untreated | viability | > 80% |
| CC/C=C\C/C=C\C/C=C\C/C=C\C/C=C\C/C=C\CCC(=O)Nc1ccn(C2OC(CO)C(O)C2(F)F)c(=O)n1 (stereo not drawn) | M14 | NCI60 screen |  |  | CC50 | 34.8 µM |
| Cc1ccc(-n2nc3c(=O)n(CCCC(=O)NCC(C)c4ccccc4)nc(C)c3c2C)cc1 (stereo not drawn) | MIA PaCa-2 | annexin V/PI flow cytometry | 50 µM, 48 h |  | apoptotic cells | 28.6% |
| COC(=O)[C@H](CC(C)C)NC(=O)[C@@H]1CCCN1C(=O)[C@@H](NC(=O)[C@H](CCC(=O)C=[N+]=[N-])NC(=O)OCc1ccccc1)C(C)C | Q7 striatal cells |  | 50 µM, 24 h |  | citrate synthase activity increase | ~50% |
| O=C(O)CCC(NP(=O)(O)OCCC[C@@H](NC(=O)CCC(NC(=O)CCCCCNC(=O)CCCCCNC(=O)c1ccc([18F])cc1)C(=O)O)C(=O)O)C(=O)O (stereo partly drawn) | CWR22Rv1 |  | 2 h |  | surface-bound fraction | 8.69 ± 0.94% |
| C/C(=N\OCCCN1CCCCC1)c1ccc(C(F)(F)F)cc1 | HEK293 expressing human σ1R | store-operated calcium entry, measured: intracellular Ca2+ | 10 µM |  | inhibition | inhibited |
| COC1CC(=O)N(C)C=CCCCC(=O)N(C)C(C(C)C)C(=O)N(C)C(CC(C)C)C(=O)OC(C(C)C)CC(C)C1 (stereo not drawn) | HCT-116 | RNA sequencing, measured: ABRA signalling pathway | 20 µM, 12 h | direction not given | pathway activation z-score | 2.45 |
| CC[C@H]1OC(=O)[C@H](C(C)C)NC(=O)[C@H](C)OC(=O)[C@@H](C(C)C)NC(=O)[C@@H](C(C)C)OC(=O)[C@H](C(C)C)NC(=O)[C@H](C)OC(=O)[C@@H](C(C)C)NC(=O)[C@@H](C(C)C)OC(=O)[C@H](C(C)C)NC(=O)[C@H](C)OC(=O)[C@@H](C(C)C)NC1=O | U-87 MG | Western blot, measured: ATP synthase beta | 5 and 10 µM, 48 h |  | protein level | no effect |
| C[C@H]1C(OCCCCCCCC[P+](c2ccccc2)(c2ccccc2)c2ccccc2)O[C@@H]2O[C@@]3(C)CCC4[C@H](C)CCC1[C@]42OO3 (stereo partly drawn) | J82 and T24 | western blot, measured: CDK6 | concentration not given, 48 h |  | protein level | decreased |
| CC(C)[C@H](NC(=O)c1ccc(CNc2nc3c(c(=O)[nH]2)CCC3)cc1)C(=O)NC1COC1 | mouse osteoclast precursors |  | 10 µM, 5 to 7 d, added: M-CSF and RANKL | relative to: control | osteoclast differentiation | 22% |
| CC(=O)N1CCCC[C@H]1C(=O)NC(C)(C)C(=O)N1CCCC[C@H]1C(=O)NC(C)(C)C(=O)NC(C)(C)C(=O)N[C@@H](CC(C)C)C(=O)N[C@H](C)CC(=O)NCC(=O)NC(C)(C)C(=O)NC(C)(C)C(=O)N1CCCC[C@H]1C(=O)NC(C)(C)C(=O)NCC(=O)N[C@@H](CC(C)C)C(=O)NC(C)(C)C(=O)N[C@@H](CC(C)C)C[N+]1=C2CCCN2CCC1 | 39 cancer cell lines |  | 48 h, mean over panel |  | GI50 | 2.95 µM |
| CC12CCC3(CCC(=O)OCCNc4ccnc5cc(Cl)ccc45)C(C)(OOC3(C)O1)O2 | HL-60 | cell growth or viability, resazurin | 10 µM, 48 h |  | inhibition | 9.9% |
| CCCc1cc(OC)c(OC)c(OC)c1OC | HCT-116 | cell growth or viability | 72 h |  | GI50 | > 250 µM |
| CC[C@H](C)[C@H](NC(=O)[C@H](Cc1ccccc1)NC(=O)[C@H](CC(=O)O)NC(=O)[C@H](CCCCN)NC(=O)[C@H](C)NC(=O)[C@H](CCCCN)NC(=O)[C@H](CC(N)=O)NC(=O)[C@H](CC(C)C)NC(=O)[C@H](Cc1c[nH]c2ccccc12)NC(=O)[C@H](CCC(=O)O)NC(=O)[C@H](CCCCN)NC(=O)[C@@H](NC(=O)CNC(=O)[C@H](C)N)[C@@H](C)O)C(=O)N[C@@H](CCCCN)C(=O)N[C@@H](CCC(=O)O)C(=O)N[C@@H](CCCCN)C(=O)NCC(=O)N[C@@H](CC(C)C)C(=O)N[C@@H](CCC(=O)O)C(=O)N[C@@H](CCSC)C(=O)N[C@@H](CC(C)C)C(=O)N[C@@H](CO)C(=O)N[C@@H](C)C(=O)N[C@@H](C)C(=O)N[C@@H](C)C(=O)N[C@@H](CC(N)=O)C(=O)N[C@@H](C)C(=O)N[C@@H](C)C(=O)N[C@@H](CC(C)C)C(=O)N[C@@H](CC(N)=O)C(=O)O | mouse DRG neurons |  | 10 µM, 90 s |  | intracellular calcium increase | inactive |
| CCCc1cc2c(c(OC)c1OC)OCO2 | HCT-116 | cell growth or viability, MTT | 72 h |  | GI50 | 193 µM |
| CC[C@H](C)[C@H](NC(=O)[C@@H]1CCCN1C(=O)[C@@H](N)C(C)C)C(=O)N[C@@H](C)C(N)=O | PC-12 | Aβ42-induced neurotoxicity, inhibitor, MTT | concentration not given, 6 h, 37 °C, peptide to Aβ42 1:2, added: Aβ42 2 µM | relative to: untreated cells | viability | 96% |

Repeated from above:
| Compound | cell line | test | conditions | scale | quantity | result |
| --- | --- | --- | --- | --- | --- | --- |
| CCCc1cc(OC)c(OC)c(OC)c1OC | HCT-116 | cell growth or viability | 72 h |  | GI50 | > 250 µM |
| CC[C@H](C)[C@H](NC(=O)[C@H](Cc1ccccc1)NC(=O)[C@H](CC(=O)O)NC(=O)[C@H](CCCCN)NC(=O)[C@H](C)NC(=O)[C@H](CCCCN)NC(=O)[C@H](CC(N)=O)NC(=O)[C@H](CC(C)C)NC(=O)[C@H](Cc1c[nH]c2ccccc12)NC(=O)[C@H](CCC(=O)O)NC(=O)[C@H](CCCCN)NC(=O)[C@@H](NC(=O)CNC(=O)[C@H](C)N)[C@@H](C)O)C(=O)N[C@@H](CCCCN)C(=O)N[C@@H](CCC(=O)O)C(=O)N[C@@H](CCCCN)C(=O)NCC(=O)N[C@@H](CC(C)C)C(=O)N[C@@H](CCC(=O)O)C(=O)N[C@@H](CCSC)C(=O)N[C@@H](CC(C)C)C(=O)N[C@@H](CO)C(=O)N[C@@H](C)C(=O)N[C@@H](C)C(=O)N[C@@H](C)C(=O)N[C@@H](CC(N)=O)C(=O)N[C@@H](C)C(=O)N[C@@H](C)C(=O)N[C@@H](CC(C)C)C(=O)N[C@@H](CC(N)=O)C(=O)O | mouse DRG neurons |  | 10 µM, 90 s |  | intracellular calcium increase | inactive |
